Results from different studies.
Values joined by “and” are separate records of one study, mostly repeats; a detail may differ. ± marks the error that the study gave.

| Compound | test | system | conditions | plasma concentration |
| --- | --- | --- | --- | --- |
| C[C@@H]1CCO[C@H]2Cn3cc(C(=O)NCc4ccc(F)cc4F)c(=O)c(O)c3C(=O)N12 | population PK, post-hoc | children, 6 to <10 kg, plasma | oral, 20 mg dispersible tablet, 24 h, steady state, geometric mean | 1420 ng/mL |
| COc1ccc2c(c1)CN(C(=O)CCN1CCC(Cc3ccccc3)CC1)CC[S@@+]2[O-] |  | anaesthetised beagle dog, male, plasma | intravenous, 2 mg/kg over 30 min, end of infusion | 712 ± 276 ng/mL |
| COc1cccc(-c2n[nH]c(SCc3ccccn3)n2)c1OC |  | Sprague-Dawley rats, both sexes | oral dietary, 10 mg/kg/day, day 7, 1 h | 143 ng/mL |
| CNCCOC12CC3(C)CC(C)(CC(Cn4ncc(-c5ccc(N6CCc7cccc(C(=O)Nc8nc9ccccc9s8)c7C6)nc5C(=O)O)c4C)(C3)C1)C2 |  | anaesthetised male beagle dogs | intravenous bolus, 0.03 mg/kg, 90 min | 0 ng/mL |
| CCOCc1nc(O)c(-c2nnc(Cc3ccc(Cl)cn3)o2)c(O)c1-c1c(OC)cccc1OC |  | anaesthetised rat, plasma | intravenous infusion, 100 µg/kg/min, 15 min | 15 ± 0.22 µM |
| Cc1cc([C@H]2C[C@H]3[C@@H](CF)SC(N)=N[C@@]3(c3ccc(F)cc3F)CO2)on1 |  | male 129/SVE wild-type mouse, plasma | subcutaneous, 100 mg/kg, 7 h | 0.072 µM |
| Cc1c(C(=O)O)ccc2c3n(nc12)[C@@H]1[C@H](C3)N(CC2CC2)[C@@]2(C(=O)Nc3cc(Cl)ccc32)[C@H]1c1cccc(Cl)c1F |  | female BALB/c nude mice, plasma | oral, 1 mg/kg twice daily, 14 h, SJSA-1 tumour-bearing | 1.24 µM and 0.632 µM and 0.822 µM and 1.23 µM |
| CSc1cc(Oc2ccnc3[nH]c(=O)cnc23)ccc1NC(=O)Nc1cc(C(C)(C)C)nn1-c1ccccc1 |  | NSG mouse, female, plasma | oral, 20 mg/kg, 1 h after last dose | 28 µM and 49.8 µM and 81.1 µM and 38.8 µM |
| C[C@@H](O)[C@H]1C(=O)N2C(C(=O)O)=C(S[C@@H]3CN[C@H](C(=O)N(C)C)C3)[C@H](C)[C@H]12 |  | BALB/c mouse, male, plasma | intraperitoneal, dose not given, 2 h, added: combination treatment | 1540 ng/mL |
| CCCCCN1C[C@H](O)[C@@H](O)[C@H](O)[C@@H]1CO | LC-MS/MS | mouse Hexb-/- male, plasma | 300 mg/kg/day, arithmetic mean | 3000 ng/mL |

A few entries again:
| Compound | test | system | conditions | plasma concentration |
| --- | --- | --- | --- | --- |
| CNCCOC12CC3(C)CC(C)(CC(Cn4ncc(-c5ccc(N6CCc7cccc(C(=O)Nc8nc9ccccc9s8)c7C6)nc5C(=O)O)c4C)(C3)C1)C2 |  | anaesthetised male beagle dogs | intravenous bolus, 0.03 mg/kg, 90 min | 0 ng/mL |
